Published values collected from several papers.
Each numbered part is a random draw from the data of one study; scales do not carry over between parts. Several values in a cell are separate wells, animals, samples, runs or records.
UniProt P49841, sequence (whole entry, looked up): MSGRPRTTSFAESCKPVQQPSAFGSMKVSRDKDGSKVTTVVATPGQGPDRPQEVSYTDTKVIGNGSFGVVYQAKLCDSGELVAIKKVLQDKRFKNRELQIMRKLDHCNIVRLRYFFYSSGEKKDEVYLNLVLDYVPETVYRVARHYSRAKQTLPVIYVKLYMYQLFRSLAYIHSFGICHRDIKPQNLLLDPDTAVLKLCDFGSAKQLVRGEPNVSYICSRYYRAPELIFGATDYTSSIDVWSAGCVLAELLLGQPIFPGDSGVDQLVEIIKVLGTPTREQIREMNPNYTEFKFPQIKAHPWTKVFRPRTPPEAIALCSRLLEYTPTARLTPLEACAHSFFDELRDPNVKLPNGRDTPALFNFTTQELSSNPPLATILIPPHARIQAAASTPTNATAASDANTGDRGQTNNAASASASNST
UniProt Q14004, sequence (whole entry, looked up): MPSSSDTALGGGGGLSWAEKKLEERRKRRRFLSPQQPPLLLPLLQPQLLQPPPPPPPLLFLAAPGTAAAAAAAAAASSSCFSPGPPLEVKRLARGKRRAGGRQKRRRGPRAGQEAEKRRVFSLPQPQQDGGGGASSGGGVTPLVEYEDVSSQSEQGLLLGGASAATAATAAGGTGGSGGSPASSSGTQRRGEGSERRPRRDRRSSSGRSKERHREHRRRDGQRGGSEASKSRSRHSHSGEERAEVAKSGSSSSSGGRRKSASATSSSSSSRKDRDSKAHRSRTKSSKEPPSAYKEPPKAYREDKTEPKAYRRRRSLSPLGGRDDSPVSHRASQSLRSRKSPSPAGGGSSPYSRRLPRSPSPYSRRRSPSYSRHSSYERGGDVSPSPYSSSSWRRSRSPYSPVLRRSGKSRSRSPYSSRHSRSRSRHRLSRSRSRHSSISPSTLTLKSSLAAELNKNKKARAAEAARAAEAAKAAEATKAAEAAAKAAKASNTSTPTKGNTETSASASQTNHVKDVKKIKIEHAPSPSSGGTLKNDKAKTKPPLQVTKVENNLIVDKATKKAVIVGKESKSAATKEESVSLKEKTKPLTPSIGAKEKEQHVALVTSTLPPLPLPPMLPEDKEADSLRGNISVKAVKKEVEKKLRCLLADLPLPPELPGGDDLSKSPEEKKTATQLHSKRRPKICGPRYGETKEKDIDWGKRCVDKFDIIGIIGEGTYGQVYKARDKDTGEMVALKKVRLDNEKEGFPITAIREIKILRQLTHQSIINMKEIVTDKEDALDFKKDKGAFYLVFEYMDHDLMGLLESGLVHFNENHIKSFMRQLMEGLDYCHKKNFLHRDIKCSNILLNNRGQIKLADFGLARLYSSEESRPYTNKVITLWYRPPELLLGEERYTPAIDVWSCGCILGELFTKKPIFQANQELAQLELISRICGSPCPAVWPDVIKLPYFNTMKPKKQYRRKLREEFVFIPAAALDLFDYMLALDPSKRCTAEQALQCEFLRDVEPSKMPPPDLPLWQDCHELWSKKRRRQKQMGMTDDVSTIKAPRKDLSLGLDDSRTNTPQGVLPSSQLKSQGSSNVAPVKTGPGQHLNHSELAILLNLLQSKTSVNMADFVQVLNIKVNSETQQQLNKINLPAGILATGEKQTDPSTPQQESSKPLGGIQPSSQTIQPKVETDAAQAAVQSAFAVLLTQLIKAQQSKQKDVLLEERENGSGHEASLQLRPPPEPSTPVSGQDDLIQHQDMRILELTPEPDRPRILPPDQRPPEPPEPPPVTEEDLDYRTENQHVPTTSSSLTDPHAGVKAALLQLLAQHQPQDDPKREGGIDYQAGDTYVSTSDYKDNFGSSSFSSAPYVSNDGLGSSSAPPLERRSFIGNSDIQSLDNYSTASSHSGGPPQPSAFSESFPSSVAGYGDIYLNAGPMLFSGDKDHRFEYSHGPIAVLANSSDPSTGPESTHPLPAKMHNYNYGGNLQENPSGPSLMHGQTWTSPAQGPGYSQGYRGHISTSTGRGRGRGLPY
UniProt Q09013, sequence (whole entry, looked up): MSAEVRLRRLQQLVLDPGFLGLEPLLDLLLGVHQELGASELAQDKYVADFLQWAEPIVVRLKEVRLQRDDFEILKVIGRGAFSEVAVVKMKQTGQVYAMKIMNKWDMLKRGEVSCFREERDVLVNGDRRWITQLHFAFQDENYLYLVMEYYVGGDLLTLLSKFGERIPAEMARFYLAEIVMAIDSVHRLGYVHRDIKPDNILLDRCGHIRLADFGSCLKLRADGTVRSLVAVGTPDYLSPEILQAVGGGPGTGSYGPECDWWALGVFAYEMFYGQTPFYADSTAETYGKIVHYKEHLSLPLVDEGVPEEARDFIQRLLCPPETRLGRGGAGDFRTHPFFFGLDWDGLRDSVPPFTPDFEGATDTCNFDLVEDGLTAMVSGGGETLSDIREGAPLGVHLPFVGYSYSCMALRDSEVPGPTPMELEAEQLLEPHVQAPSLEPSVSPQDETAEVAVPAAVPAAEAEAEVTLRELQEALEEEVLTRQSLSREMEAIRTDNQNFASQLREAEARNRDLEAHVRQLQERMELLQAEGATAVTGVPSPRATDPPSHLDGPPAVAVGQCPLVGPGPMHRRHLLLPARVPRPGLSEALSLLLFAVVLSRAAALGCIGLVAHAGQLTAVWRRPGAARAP
UniProt Q96SB4, sequence (whole entry, looked up): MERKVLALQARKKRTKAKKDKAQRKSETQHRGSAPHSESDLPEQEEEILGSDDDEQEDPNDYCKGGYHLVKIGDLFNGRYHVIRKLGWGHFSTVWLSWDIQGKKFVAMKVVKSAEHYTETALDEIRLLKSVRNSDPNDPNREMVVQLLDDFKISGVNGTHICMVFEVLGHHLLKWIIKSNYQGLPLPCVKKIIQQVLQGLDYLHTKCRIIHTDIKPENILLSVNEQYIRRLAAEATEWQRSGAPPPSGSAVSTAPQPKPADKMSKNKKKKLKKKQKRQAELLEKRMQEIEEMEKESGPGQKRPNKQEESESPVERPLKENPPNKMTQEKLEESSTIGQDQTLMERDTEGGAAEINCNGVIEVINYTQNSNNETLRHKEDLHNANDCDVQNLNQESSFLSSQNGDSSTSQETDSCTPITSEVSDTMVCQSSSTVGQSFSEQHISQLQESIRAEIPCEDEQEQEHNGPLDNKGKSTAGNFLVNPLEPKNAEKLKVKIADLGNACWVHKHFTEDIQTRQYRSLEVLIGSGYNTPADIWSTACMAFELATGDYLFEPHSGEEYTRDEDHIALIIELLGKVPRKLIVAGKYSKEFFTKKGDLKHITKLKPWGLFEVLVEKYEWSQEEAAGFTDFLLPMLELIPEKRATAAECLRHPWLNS
UniProt Q86UX6, sequence (whole entry, looked up): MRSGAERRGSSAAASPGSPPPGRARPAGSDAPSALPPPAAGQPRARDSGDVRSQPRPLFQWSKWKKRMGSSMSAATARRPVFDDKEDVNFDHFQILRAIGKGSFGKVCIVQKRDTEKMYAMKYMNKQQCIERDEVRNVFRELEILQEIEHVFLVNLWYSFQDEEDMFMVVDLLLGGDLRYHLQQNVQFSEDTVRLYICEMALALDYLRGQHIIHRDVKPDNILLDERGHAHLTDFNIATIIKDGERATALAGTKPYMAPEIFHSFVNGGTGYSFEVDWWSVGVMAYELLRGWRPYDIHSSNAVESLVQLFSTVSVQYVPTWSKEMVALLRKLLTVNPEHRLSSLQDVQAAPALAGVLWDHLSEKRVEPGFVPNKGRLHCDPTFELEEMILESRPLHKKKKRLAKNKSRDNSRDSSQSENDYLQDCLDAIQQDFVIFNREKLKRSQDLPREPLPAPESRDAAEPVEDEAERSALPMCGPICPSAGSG

Series 1 — organism: Sarcocystis neurona; effect on: parasite growth; concentration: 10 µM; time: 96 h; notes: first screen; baseline: untreated; quantity: log2 fold change
CS(=O)(=O)OCCCCOS(C)(=O)=O: 0.35
COCC1=C(C(=O)OC(C)OC(=O)OC(C)C)N2C(=O)[C@@H](NC(=O)/C(=N\OC)c3csc(N)n3)[C@H]2SC1 (some centres unmarked): -0.15
CCCN(CCC)S(=O)(=O)c1ccc(C(=O)O)cc1: 0.33
CN(C)CCOC(c1ccc(Cl)cc1)c1ccccn1 (centres unmarked): -0.05
C[C@H]1COc2c(N3CCN(C)CC3)c(F)cc3c(=O)c(C(=O)O)cn1c23: -0.32
CC(C)C[C@H](NC(=O)[C@@H](O)[C@H](N)Cc1ccccc1)C(=O)O: -0.17

Series 2 — cell line: mouse MPNST tumor cells; method: high-content nuclear imaging; item: cell number; concentration: 10 µM; time: 12 h; notes: mean of 2 replicates; baseline: plate mean; reading: higher = more cells; quantity: nuclei count
CC1CC(OC(=O)c2ccccc2O)CC(C)(C)C1 (centres unmarked): 1.12 z-score
COc1cc2ncnc(Nc3ccc(F)c(Cl)c3)c2cc1OCCCN1CCOCC1: 0.311 z-score and -4.95 z-score and -3.19 z-score
CCn1cc(-c2cccc(C(F)(F)F)c2)c2sc(C(=N)NC3CCS(=O)(=O)CC3)cc2c1=O: 2.2 z-score and 0.66 z-score
C[C@H](Oc1cc(-c2cnn(C3CCNCC3)c2)cnc1N)c1c(Cl)ccc(F)c1Cl: -6.37 z-score
CCCCN(CC)c1nc(C)nc2c1c(C)c(C)n2-c1c(C)cc(C)cc1C: 1.58 z-score
CN[C@@H]1[C@H](O[C@H]2[C@H](O[C@H]3[C@H](O)[C@@H](O)[C@H](N=C(N)N)[C@@H](O)[C@@H]3N=C(N)N)O[C@@H](C)[C@]2(O)C=O)O[C@@H](CO)[C@H](O)[C@H]1O: 0.996 z-score
N=C(N)NCCC[C@H](NC(=O)CC1(CC(=O)N2CCN(C3c4ccccc4NC(=O)c4ccccc43)CC2)CCCC1)C(=O)NCCn1c(=O)n(-c2ccccc2)n(-c2ccccc2)c1=O (some centres unmarked): 2.02 z-score
Nc1ccc(S(=O)(=O)Nc2ccc(Cl)nn2)cc1: 1.91 z-score

Series 3 — mode: agonist; quantity: EC50
Target: Beta-1 adrenergic receptor (ADRB1, Homo sapiens, UniProt P08588)
UniProt P08588, sequence (whole entry, looked up): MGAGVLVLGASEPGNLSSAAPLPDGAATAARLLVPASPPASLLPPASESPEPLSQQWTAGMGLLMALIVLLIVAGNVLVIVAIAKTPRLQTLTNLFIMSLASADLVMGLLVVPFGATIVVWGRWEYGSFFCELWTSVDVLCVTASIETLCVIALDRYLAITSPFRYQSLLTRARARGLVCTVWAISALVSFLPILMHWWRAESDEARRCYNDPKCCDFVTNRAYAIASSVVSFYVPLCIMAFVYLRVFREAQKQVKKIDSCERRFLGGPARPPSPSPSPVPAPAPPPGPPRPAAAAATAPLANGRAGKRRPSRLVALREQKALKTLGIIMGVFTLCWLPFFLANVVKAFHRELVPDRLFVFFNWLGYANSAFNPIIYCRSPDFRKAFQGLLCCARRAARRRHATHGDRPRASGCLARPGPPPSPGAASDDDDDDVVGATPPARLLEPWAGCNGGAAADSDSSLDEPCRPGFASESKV
Cc1noc2c(-c3cccc(O)c3)cc(-c3ccccc3)nc12: ≥ 100 µM
Cc1noc2c(N(C)C)cc(-c3cccnc3)nc12: ≥ 100 µM
Oc1cc2c(cc1O)C(c1ccccc1)CNCC2 (centres unmarked): ≥ 100 µM
CC(C)(C)NC[C@@H](O)c1ccc(O)c(CO)n1: 0.0372 µM
O=c1c2nc(-c3ccccc3)ccc2ncn1-c1ccc(F)cc1F: ≥ 100 µM
O=C1c2cnc(-c3cccc(O)c3)nc2OCCN1c1cccc(C(F)(F)F)c1: ≥ 100 µM
Cc1noc2c(N(C)C)cc(-c3ccc(Cl)cc3)nc12: ≥ 100 µM
Cc1noc(C)c1-c1nccc2c(=O)cc(N(C)c3ccccc3)oc12: ≥ 100 µM
CC(C)N1CCN(c2cc(-c3ccccc3)c3ccccc3n2)CC1: ≥ 100 µM

Series 4 — species: human; matrix: microsomes or S9; concentration: 2 µM; time: 0.5 h; quantity: remaining compound
CN(c1ccccc1)c1ccc2oc(-c3cc(-c4cnn(C5CCNCC5)c4)cnc3N)nc2c1: < 1%
NCCN1CCOC(CC(=O)Nc2cc(Cl)cc(Cl)c2)C1=O (centres unmarked): 84.6%
CN(Cc1cccnc1)C(=O)c1c(OCC2CC2)cc(=O)n2c1CCCCC2: 50.5%
O=C(N1CCn2c1nc1ccccc12)C1(c2cccs2)CCCC1: 0.383%
COc1nc2cc(C)ccc2cc1CN(C)C1(C)CCS(=O)(=O)C1 (centres unmarked): 15.2%

Series 5 — method: competition with immobilised ligand; concentration: 1 µM; quantity: remaining binding
SMILES: Cc1nccc(COC(=O)N2C[C@@H]3[C@@H](CNC(=O)c4ccc5[nH]nnc5c4)[C@@H]3C2)n1
STK10 (Homo sapiens, UniProt O94804); cell-free assay: 100%
MAPK11 (Homo sapiens, UniProt Q15759); cell-free assay: 94%
EGFR (Homo sapiens, UniProt P00533, del746-750); cell-free assay: 100%
STK32C (Homo sapiens, UniProt Q86UX6); cell-free assay: 95%
CSNK2A2 (Homo sapiens, UniProt P19784); cell-free assay: 85%
SRC (Homo sapiens, UniProt P12931); cell-free assay: 100%
CDK13 (Homo sapiens, UniProt Q14004); cell-free assay: 82%
DYRK1B (Homo sapiens, UniProt Q9Y463); cell-free assay: 99%
PIK3CA (Homo sapiens, UniProt P42336, E542K); cell-free assay: 86%
HASPIN (Homo sapiens, UniProt Q8TF76); cell-free assay: 91%
MYLK2 (Homo sapiens, UniProt Q9H1R3); cell-free assay: 90%
SBK1 (Homo sapiens, UniProt Q52WX2); cell-free assay: 93%
MAP4K2 (Homo sapiens, UniProt Q12851); cell-free assay: 84%
ACVR1B (Homo sapiens, UniProt P36896); cell-free assay: 92%
LIM domain kinase 2 (LIMK2, Homo sapiens, UniProt P53671); cell-free assay: 92%
MYLK4 (Homo sapiens, UniProt Q86YV6); cell-free assay: 89%
EGFR (Homo sapiens, UniProt P00533, T790M); cell-free assay: 91%
CDC42BPB (Homo sapiens, UniProt Q9Y5S2); cell-free assay: 82%
GSK3B (Homo sapiens, UniProt P49841); cell-free assay: 100%
TXK (Homo sapiens, UniProt P42681); binding: 94%
MAP3K1 (Homo sapiens, UniProt Q13233); cell-free assay: 85%
MAP2K4 (Homo sapiens, UniProt P45985); cell-free assay: 100%
SRPK1 (Homo sapiens, UniProt Q96SB4); cell-free assay: 80%
DMPK (Homo sapiens, UniProt Q09013); cell-free assay: 98%
MARK4 (Homo sapiens, UniProt Q96L34); cell-free assay: 85%
